Experimental data from different studies.
Numbered parts are unrelated; each lists some results of a single study.

Series 1
Target: RNA binding protein fox-1 homolog 2, RRM domain, GST-SBP tag (RBFOX2, Homo sapiens, UniProt O43251-10, residues 100-194)
Method: RNA Bind-n-Seq
Molecule type: RNA
Medium: in vitro
Tested at: 365 nM
Setting: natural RNA segment, single round, ends assumed
Baseline: no-protein control
Reading: higher = stronger binding
Construct (chain): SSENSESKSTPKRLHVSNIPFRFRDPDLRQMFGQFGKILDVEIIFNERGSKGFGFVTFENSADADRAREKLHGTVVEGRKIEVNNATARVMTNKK
Strand	RBNS enrichment (R)
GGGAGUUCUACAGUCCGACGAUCCCCUGCACCCACUCCCUUCAUAGAAUCUAGUCAGAAUAACGCCUCUGGGGGUGCAGGUUCUCGGACCACAUCGAGGGACAGCUCCCUGUACCAGGAGAGUUGAGAGAUAGUGGAAUUCUCGGGUGCCAA	0.487
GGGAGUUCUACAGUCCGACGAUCUUGUGUAUAUUACUACAAAGACAACCCCAAACCAAUUUUUUUCCUGCGAAGUUUAAUGAUCCACAAGUGUAUAUAUGAAAUUCUCCUCCUUCCUUGCCCCCCUCUCUUUCUGGAAUUCUCGGGUGCCAA	0.96
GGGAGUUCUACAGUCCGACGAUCCCCUGGGUGGAUACUUGAACCAGAGAUCCCGACCCUGCUGCUCCAUCUCAGGAGGCAGCCUUCCUGACCAAGUGUGUUUGACAUGGAGCGCCCUGUGGUGCCCACCUCCAUGGAAUUCUCGGGUGCCAA	0.343
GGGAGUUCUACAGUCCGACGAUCAAUCUGGGCUGGUCCUUCUAUAUUCUUGGUCCCAGUUGGUCAUAACACCAAGGGCUUUGCCCUGCGCUGCUUUGCCACUGCUGCUGUCCGCUCACUGUCCUGCCUGCUGUUGGAAUUCUCGGGUGCCAA	1.07
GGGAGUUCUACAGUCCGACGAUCUCGCGCACAGGGCCCUCUCUCUUAGAGACUGCUCAGCUUUCGAGUCCAGGGAGGAGUCAGCGGGGAGUCAGCAGGUUCUCUCUCCUCCCUGGGAACUGGGGACCAACCCAUGGAAUUCUCGGGUGCCAA	0.277
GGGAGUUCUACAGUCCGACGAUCACGCCAAGGACACUCGCCACUAUUCACACGCUGUGCCGAGGGUGUGUGGAGGGACAACAGAGAGCAGUGUAUCUGAGUAAGAUGCACACAUCGAAGUGCGUUCAAAGUCUUGGAAUUCUCGGGUGCCAA	0.446
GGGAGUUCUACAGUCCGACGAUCAAGGCCUUGAUGUGAAUUUUCUUUGGUACAAAUAGGAAUGGCCCACUGAGGCAGAGGAGUAAGAGUGGUCCAUACACCCAAAUGCCAGCAAAUUGGCAUCUCAUUCUACCUGGAAUUCUCGGGUGCCAA	0.489
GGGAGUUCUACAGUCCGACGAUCAUGGAAAACCGGGGUGUCUCCCGCACAGCUUCCCAGGAGUCAGGUGGGACCCAGGCGUGGGGGGACCUUUCUGCCCCACAUUCCUGGCAUUCCCCCCAAGUUUAUUUCUAUGGAAUUCUCGGGUGCCAA	0.154
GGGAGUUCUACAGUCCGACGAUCGAAUAAAUGGGGUUGGGCAUAUCAAACUAAAGAUGACAUCUUAAUUUUGCAUUGAACAUUAAUGUAGCGGAUAUAAUUUGAUGAUUAUACUUCAUUAGAUUUAAUUUCUAUGGAAUUCUCGGGUGCCAA	0.511
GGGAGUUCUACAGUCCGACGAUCACACCUCUCCCCACGCAGAGGGGGAAUUCUGCCCUGGUGAAACAGACACUCCAGACAUGGGAGAAGGACUUUCUGGGAACACAGAGACCAAGAGGGAGAGAGGCUUCAGAUGGAAUUCUCGGGUGCCAA	0.448
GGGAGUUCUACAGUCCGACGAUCCCCACCCUAAGCGAACGGUAAGAAGGCCUCUCUUAAGAAGGGGAGACAGAUGGUCCUUAACUACUCAAUGACAGAGGCAGUUACUGUGAGAGACUUCUAGGAAUCUUUUUUGGAAUUCUCGGGUGCCAA	0.448
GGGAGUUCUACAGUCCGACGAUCUGCCCCCUCAUGAUCCUCGUUCCCUCUCACUGCUCCCCUUUGCUGGGGAGUGAGGGUGGAACCUAUGAGGAAAACAGCUCAGGUUUUAUUGCUGGGAAUAGACAACCUCAUGGAAUUCUCGGGUGCCAA	0.246

Series 2
Target: Histone acetyltransferase KAT6A, winged helix 2, GST fusion (KAT6A, Homo sapiens, UniProt Q92794, residues 85-181)
Method: protein binding microarray
Molecule type: double-stranded DNA, one strand shown
Medium: in vitro
Tested at: not given
Setting: 8-mer, flanks averaged, mean of 2 arrays, mostly near background
Baseline: not given
Reading: higher = stronger binding
Construct (chain): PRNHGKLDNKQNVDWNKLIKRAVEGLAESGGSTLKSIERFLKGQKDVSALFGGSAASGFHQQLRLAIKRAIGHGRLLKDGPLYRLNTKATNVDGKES
Strand	E-score
CATAATAC	-0.24
CACTGGAG	-0.0687
GAACAACC	-0.0329
ACTTGCTC	-0.126
AATTAAGC	0.117
ACGCCGCC	0.072
GTTGGCAA	-0.103
ATTCGCAC	-0.1
TGATCGCA	0.0809
CTTCTACA	-0.141
CCATTAAA	0.00997
GTGGGGGA	-0.108
AGGCTCCG	0.0788
ACTGAGGG	-0.182
AACTGAGG	0.0501
CGTCAGTC	-0.136
AATATCCG	0.17
AGCTCCGG	0.103
ATGCGTGC	0.131
ACCGAGGA	0.0444
AGTGTCCG	0.0266
GTCGAGAC	-0.098
GGGCGCTA	0.062
CTAGGATC	-0.135
ACTGGGGA	-0.245

Series 3
Target: Ras GTPase-activating protein-binding protein 1, full length (G3BP1, Homo sapiens, UniProt Q13283)
Sequence of UniProt Q13283 (whole entry, looked up): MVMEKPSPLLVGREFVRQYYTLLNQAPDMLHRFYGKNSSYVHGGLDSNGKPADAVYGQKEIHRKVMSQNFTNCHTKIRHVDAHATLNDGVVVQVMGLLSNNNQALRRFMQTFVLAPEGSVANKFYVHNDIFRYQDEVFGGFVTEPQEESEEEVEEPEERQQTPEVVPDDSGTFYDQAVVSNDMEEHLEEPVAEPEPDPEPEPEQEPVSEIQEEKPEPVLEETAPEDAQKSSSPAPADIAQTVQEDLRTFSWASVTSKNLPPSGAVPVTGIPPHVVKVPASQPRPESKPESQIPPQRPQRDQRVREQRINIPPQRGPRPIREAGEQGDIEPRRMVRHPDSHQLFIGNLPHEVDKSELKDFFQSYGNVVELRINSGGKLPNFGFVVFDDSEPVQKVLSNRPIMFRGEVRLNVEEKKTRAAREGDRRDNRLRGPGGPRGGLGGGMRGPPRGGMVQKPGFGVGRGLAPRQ
Method: RNA Bind-n-Seq
Molecule type: RNA
Medium: in vitro
Tested at: 200 nM
Setting: whole 134-nt RNA, ends assumed
Together with: 150 mM KCl
Baseline: input library
Reading: higher = stronger binding
Strand	log2 enrichment
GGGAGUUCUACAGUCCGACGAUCUAACUUUAGAGGAGGAUCUGAUGGAAAUGGCAGUGGACGUGGAUUUGGGGAUGGCUAUAAUGGGUAUGGAGGAGGACCUGGAGGUGGCAAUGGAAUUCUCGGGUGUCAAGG	0.302
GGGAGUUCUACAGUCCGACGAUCCCUGUGCUACACAUCGUAUGUACCGAAUCGGGAAAAAAAGGAAAAAAAGGAAAAAAAGGGGAAAGUAUUAUGUUACGCCGUUCGGAUCUGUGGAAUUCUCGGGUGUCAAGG	-0.857
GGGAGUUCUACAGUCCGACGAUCUUCCUCAAGUCCUGUGCUACACAUCGUAUGUACCGAAUCGGGCGGCGGCGGAAAGUAUUAUGUUACGCCGUUCGGAUCUGCACUUCCAGCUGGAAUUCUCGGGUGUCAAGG	-0.199
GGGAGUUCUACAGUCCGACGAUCACCAUGCAGGUGGGCAUCUUUGGGAAGUGGGGCAAGGGGGGGAUAGGGAGGGGGGUAACACUGUGGGAACAGGUGGUCCCAGGUCGUUUCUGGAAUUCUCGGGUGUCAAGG	1.3
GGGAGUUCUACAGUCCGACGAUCUCAUUAGAAGAUCUAAUUGAGAGAGAGGUAACUGGUAUCCUUUUCCUACCAUAAAAACUGAAAGCAGUAUUUAUUGUGAAAUUCUAAUACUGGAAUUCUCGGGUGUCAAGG	-0.648
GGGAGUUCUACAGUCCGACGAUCUGGGAGGUGGAUUUUGUUUAUUUUUUUAGCUCAAUUCCAGGGGUGGGAAUUUUUUUUUAAUAUGUGUCAUGAAUAAAGUUGUUUUUGAAAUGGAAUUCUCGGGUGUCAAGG	0.53
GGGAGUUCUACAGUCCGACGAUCUGGCCCUGGUGGCAUGCGGGGAGGAAGAGGUGGCCUCAUGGAUCGUGGUGGUCCCGGUGGAAUGUUGAGAGGUGGCCGUGGUGGAGACAGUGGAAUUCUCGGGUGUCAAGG	0.331
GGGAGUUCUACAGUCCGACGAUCAGUCCUGUGCUACACAUCGUAUGUACCGAAUCAAAUUUUUAAACCCCCAAACCCAAAAAAGUAUUAUGUUACGCCGUUCGGAUCUGCACUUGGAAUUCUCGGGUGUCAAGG	-0.418
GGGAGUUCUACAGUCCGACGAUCACCAUGCAUGUGGGCAUCUUUGGGAAGUGGGGCAAGGGGGGGAUAGGGAGGGGGGUAACACUUUGGGAACAGGUGGUCCCAGGUCGUUUCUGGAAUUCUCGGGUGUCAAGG	1.11
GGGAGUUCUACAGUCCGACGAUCACCAUGCAGGUGGGCAUCUUUGGGAAGUGGGGCAAGGGGGGGAUAGGGAGGAGGGUAACACUUUGGGAACAGGUGGUCCCAGGUCGUUUCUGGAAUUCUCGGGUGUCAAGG	1.3

Series 4
Target: RING finger protein unkempt homolog, zinc fingers 1-6, GST-SBP tag (UNK, Homo sapiens, UniProt Q9C0B0, residues 30-357)
Method: RNA Bind-n-Seq
Molecule type: RNA
Medium: in vitro
Tested at: not given
Setting: RNA with constant flanks, human and mouse sites, ends assumed
Baseline: input RNA pool
Reading: higher = stronger binding
Construct (chain): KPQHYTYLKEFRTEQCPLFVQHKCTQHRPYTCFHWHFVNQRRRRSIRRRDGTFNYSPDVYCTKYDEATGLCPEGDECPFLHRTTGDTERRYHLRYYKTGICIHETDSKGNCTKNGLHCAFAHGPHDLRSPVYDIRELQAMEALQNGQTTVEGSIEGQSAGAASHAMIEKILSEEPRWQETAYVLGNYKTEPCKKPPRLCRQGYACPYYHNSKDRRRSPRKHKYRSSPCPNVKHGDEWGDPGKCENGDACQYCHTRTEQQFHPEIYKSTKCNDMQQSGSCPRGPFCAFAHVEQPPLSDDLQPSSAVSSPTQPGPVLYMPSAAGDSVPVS
Strand	bound/input enrichment
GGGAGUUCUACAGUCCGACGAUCAAGCACUUUCAGCAGGCAAAAAUGAUCCUUGAAAAUAUCCCCAAUCCAGACCGUGAGGUCAGUAGAAUCCUGAAGGUUGCCAAGCCCAACUUUGUGGUUAUGAAGCUCUUAGCAGGAGGACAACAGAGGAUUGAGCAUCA	0.406 ratio
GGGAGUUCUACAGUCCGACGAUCCAGAAACUGGAAGAGAUGGUUACCCGUUUAGAUCAAGAAGUAGCCGAGGUUGAUAAAAACAUAGAACUUUUGAAAAAGAAGGAUGAAGAACUCAGUUCUGCUCUGGAAAAAAUGGAAAAUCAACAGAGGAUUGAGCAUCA	0.926 ratio
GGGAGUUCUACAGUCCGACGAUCACUGUCCAGGAGGUUCACCCAGGAGAACCUCCAUUCGACCUAGAGCUUUUCUACGUUAAGUAUAGAAAUUUUUCCUAUUUACAUUGUAAAUGGGCCACAAUGGAAGAACUGGAAAAGGAUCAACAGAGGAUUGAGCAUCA	0.549 ratio
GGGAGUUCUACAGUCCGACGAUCCUACAGGAUGUUGCAGACUCAUUUAAGAAAAUUUUUGAUGAAGCAAAAACAGCCCAAGAAAAAGAUUCAUUGAUAACACCUCAUGUUUCUCAUCUGAGCACCCCUAGAGAGUCACCAUGUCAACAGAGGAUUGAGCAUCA	0.234 ratio
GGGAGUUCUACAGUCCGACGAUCAUGCAGAUGGCUGGGAAGGACAUCAUCCUCACAGACAAAGGAACUGCUGUGUUACAGUUCCUCACAAGCCUCUUUAAGCCUUUUGUGGAAUCAUAUCAGUUACUUUGCAGAUACCUUUUGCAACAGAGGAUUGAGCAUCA	0.0856 ratio
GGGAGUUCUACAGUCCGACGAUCUUAGAUUUCAUUGGUAAUAAUGAGUCCCCACGUAAGAAGUUUCCCCCGAUGACAUCUUACCACAGGAUGCUGUUACACAGAGUGGCUGCCUACUUUGGAUUAGACCACAAUGUUGAUCAGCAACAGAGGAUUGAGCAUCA	0.192 ratio
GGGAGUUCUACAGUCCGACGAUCGUUACAAGACCAAUAUUUGGGAUACUGGGCACAAUCCAUCUGGUGGCAGGUAAUUAUCUUGUUGUCAUCACCAAAAAGAUGAAAGUAGGUGAAUGUUUUAAUCAUGCGGUCUGGAGAGCCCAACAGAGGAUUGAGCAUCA	0.724 ratio
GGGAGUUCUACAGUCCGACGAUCUCCUGGCUUUUCUCGUUUUCUCACUUGCUCUCUUGUUCUCUGUUUUUUUAAACCAAUUUUACUUUAUGAAUAUAUUCAUGACAUUUGUAAUAAAUGUCUUGAGAAAGAAUUUGUUUCAUGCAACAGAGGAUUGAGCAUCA	0.753 ratio
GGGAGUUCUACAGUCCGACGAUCUCUGGUUGAUUUAGCUGGUAGUGAAAAGGUUAGUAAAACUGGAGCUGAAGGUGCUGUGCUGGAUGAAGCUAAAAACAUCAACAAGUCACUUUCUGCUCUUGGAAAUGUUAUUUCUGCUUUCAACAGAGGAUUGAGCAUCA	0.308 ratio
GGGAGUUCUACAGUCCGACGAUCCAGGCCAGAAACAAGAGGAAGCAAGACACCAAGAGCUUGAAGCAGAAGGACACUAAGAAGAAAUUGAAGGCUGAGAAAGAGAAGAUGAAGACAAAGCAGGAAAAGCUGAAGGAAAAGGUACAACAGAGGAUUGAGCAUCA	0.422 ratio
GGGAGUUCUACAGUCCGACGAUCGCAGCUAUUCCACAUGCCGCAGAAGAUAUUCAAGGAGAUGACAGGUGGAUGUCUCAGCAUAAUAGGUUUGUUCUGGACUGUAAAGACAAAGAACCAGAUGUGCUGUUUGUGGGGGACUCCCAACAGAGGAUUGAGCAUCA	0.189 ratio
